Measurements collected from several papers.
Numbered parts are unrelated; each lists some results of a single study. Substitutions count along the parent as printed.

Study 1
Target: CCNE2, cyclin fold, Cln2 fusion (human)
Technique: yeast growth competition, sequencing
Matrix: yeast
Setting: weak parent motif
Reference: not given
Reading: higher = stronger binding
Parent: MICAL3 docking peptide (human); LQLRRQLSFSEDS; partner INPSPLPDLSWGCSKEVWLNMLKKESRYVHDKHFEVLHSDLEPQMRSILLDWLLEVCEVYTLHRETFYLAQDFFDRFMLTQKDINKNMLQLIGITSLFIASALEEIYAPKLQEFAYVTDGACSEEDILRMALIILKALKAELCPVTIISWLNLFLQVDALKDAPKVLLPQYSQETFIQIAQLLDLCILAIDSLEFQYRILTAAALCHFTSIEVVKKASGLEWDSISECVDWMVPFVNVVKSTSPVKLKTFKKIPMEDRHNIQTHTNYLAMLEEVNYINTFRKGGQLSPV
`L7N`: “normalised enrichment score” 0.0175.
Under “normalised enrichment score”, `R4V` is recorded as 0.0414.
Under “normalised enrichment score”, `Q6H` is recorded as -0.103.
`S10R` — result for “normalised enrichment score”: 0.328.
For `S10C`, “normalised enrichment score” read 0.358.
Under “normalised enrichment score”, `L3S` is recorded as 0.434.
`Q2R` — result for “normalised enrichment score”: -0.0061.
Under “normalised enrichment score”, `S8L` is recorded as 0.611.
`F9T` — result for “normalised enrichment score”: -0.0781.
For `R5T`, “normalised enrichment score” read 0.0554.
`D12E` — result for “normalised enrichment score”: 0.412.
`Q2C`: “normalised enrichment score” 0.484.
Under “normalised enrichment score”, `D12L` is recorded as 0.825.
`F9D`: “normalised enrichment score” -0.132.
`S8Y`: “normalised enrichment score” 0.507.
`Q2P`: “normalised enrichment score” 0.666.
For `E11D`, “normalised enrichment score” read 0.215.
`S10T` — result for “normalised enrichment score”: 0.144.
`F9G`: “normalised enrichment score” 0.184.
Under “normalised enrichment score”, `Q6R` is recorded as 0.595.
For `L3C`, “normalised enrichment score” read 2.76.
For `S8P`, “normalised enrichment score” read 0.366.
`F9Q`: “normalised enrichment score” 0.429.
For `Q6N`, “normalised enrichment score” read 0.349.
`Q2K`: “normalised enrichment score” 0.379.

Study 2
Target: Histone acetyltransferase KAT6A, winged helix 1, GST fusion (KAT6A, Homo sapiens, UniProt Q92794, residues 1-85)
Technique: protein binding microarray
Form: double-stranded DNA, one strand shown
Matrix: in vitro
Concentration: not given
Setting: 8-mer, flanks averaged, mean of 2 arrays, mostly near background
Reference: not given
Reading: higher = stronger binding
Residues (chain): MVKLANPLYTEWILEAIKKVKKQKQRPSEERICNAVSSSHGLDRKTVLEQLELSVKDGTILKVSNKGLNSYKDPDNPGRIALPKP
`ACACCGGA` gave an E-score of 0.1.
`GGGACTCA` has an E-score of 0.0313.
`CTAGGACC` has an E-score of -0.115.
`TCGCAGAA` gave an E-score of -0.0809.
The E-score of `AGGTGGCG` is reported as -0.0228.
`GAAGGGAC` gave an E-score of -0.0587.
The E-score of `ACCCAGTA` is reported as -0.213.
`TAATGTCA` has an E-score of -0.0981.
`GACTTCGA` has an E-score of -0.12.
`GCTGCTAA` has an E-score of -0.121.
`CCAAAATA` has an E-score of -0.212.
For `CGTTGAAC`, the E-score was 0.216.
`GCCCTTAC` has an E-score of 0.0188.
`AGCGGGTC` has an E-score of 0.289.
With `ACCCCAGG` the E-score was -0.0295.
The E-score of `ATCTGTCG` is reported as 0.118.
`CGCGCGCC` gave an E-score of 0.464.
With `AGTGTACC` the E-score was -0.0627.
The E-score of `CTAAACAG` is reported as -0.139.
With `ACTCTCAG` the E-score was -0.113.
`CAAGACGC` has an E-score of 0.0874.
`CAACAAGA` gave an E-score of -0.155.
With `CGCCGAGC` the E-score was 0.333.
The E-score of `GACATACC` is reported as 0.0633.
The E-score of `GATTATCA` is reported as -0.107.

Study 3
Target: UBE2E1 UBC core domain (UniProt P51965)
UniProt P51965, sequence (whole entry, looked up): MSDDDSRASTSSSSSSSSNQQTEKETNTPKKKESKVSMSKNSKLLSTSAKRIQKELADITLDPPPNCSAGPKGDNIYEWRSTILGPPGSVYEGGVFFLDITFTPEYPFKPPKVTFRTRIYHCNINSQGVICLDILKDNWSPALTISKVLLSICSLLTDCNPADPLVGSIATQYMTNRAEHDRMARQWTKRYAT
Technique: yeast two-hybrid
Matrix: yeast
Setting: mostly zero background
Reference: not given
Reading: higher = stronger interaction
B1: MYCBP2 RING domain (UniProt O75592); chain TSLKQDADDMCMICFTEALSAAPAIQLDCSHIFHLQCCRRVLENRWLGPRITFGFISCPICKNKINHIVLKD
B2: RNF183 RING domain (UniProt Q96D59); chain EQQGRELEAECPVCWNPFNNTFHTPKMLDCCHSFCVECLAHLSLVTPARRRLLCPLCRQPTVLASGQP
B3: TRIM54 RING domain (UniProt Q9BYV2); chain SMDNLEKQLICPICLEMFSKPVVILPCQHNLCRKCANDVFQASNPLWQSRGSTTVSSGGRFRCPSCRHEVVLDRHGV
B4: RNF187 RING domain (UniProt Q5TA31); chain ALPAGPAEAACALCQRAPREPVRADCGHRFCRACVVRFWAEEDGPFPCPECADDCWQRAVEP
For `QVQSRTKIEECVVCSDKKAAVLFQPCGHMCACENCANLMKKCVQCRAVVERRVPFI (MIB1 RING domain (UniProt Q86YT6))`, “lacZ reporter activity” read 0.
For `AEADPLGRFTCPVCLEVYEKPVQVPCGHVFCSACLQECLKPKKPVCGVCRSALAPGVRAV (RNF114 RING domain (UniProt Q9Y508))`, “lacZ reporter activity” read 0.
For `MNDVLENELQCIICSEYFIEAVTLNCAHSFCSYCINEWMKRKIECPICRKDIKSKTYSL (RNF8 RING domain (UniProt O76064))`, “lacZ reporter activity” read 0.
For `B1 (MYCBP2 RING domain)`, “lacZ reporter activity” read 0.
For `YPEEVDDDLICHICLQALLDPLDTPCGHTYCTLCLTNFLVEKDFCPMDRKPLVLQHCKK (LNX1 RING domain (UniProt Q8TBB1))`, “lacZ reporter activity” read 0.
For `B2 (RNF183 RING domain)`, “lacZ reporter activity” read 0.
For `B3 (TRIM54 RING domain)`, “lacZ reporter activity” read 0.
For `LGTKLEAKYLCSACRNVLRRPFQAQCGHRYCSFCLASILSSGPQNCAACVHEGIYEEGIS (TRAF2 RING domain (UniProt Q12933))`, “lacZ reporter activity” read 0.
`LDAASGHPLVCPLCHGQYERPCLLDCFHDFCTGCLRGRATDGRLSCPLCQHQTLVKGPSG (Rnf207 RING domain (UniProt Q3V3A7))`: “lacZ reporter activity” 0.
For `B4 (RNF187 RING domain)`, “lacZ reporter activity” read 0.

Study 4
Target: CREBZF, bZIP domain (human)
Technique: DHFR protein complementation
Matrix: yeast
Setting: single substitutions, most at no-binding floor
Reference: wild-type JUN-FOS pair
Reading: higher = stronger binding
Parent: JUN, bZIP domain (human); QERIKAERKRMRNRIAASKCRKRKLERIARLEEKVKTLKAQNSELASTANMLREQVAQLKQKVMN; partner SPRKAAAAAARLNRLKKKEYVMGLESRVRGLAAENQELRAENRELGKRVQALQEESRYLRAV
With `R53G` the binding fitness was -1.58 natural log.
The binding fitness of `S47D` is reported as -1.4 natural log.
`E33C` gave a binding fitness of -1.59 natural log.
With `V56G` the binding fitness was -1.49 natural log.
`Q55V` gave a binding fitness of -1.52 natural log.
The binding fitness of `A46E` is reported as -1.32 natural log.
`S43E` gave a binding fitness of -1.44 natural log.
`L45C` gave a binding fitness of -1.49 natural log.
For `K39L`, the binding fitness was -1.46 natural log.
`T37C` gave a binding fitness of -1.53 natural log.

Study 5
Target: Ras GTPase-activating protein-binding protein 1, C-terminal RGG region (G3BP1, Homo sapiens, UniProt Q13283)
UniProt Q13283, sequence (whole entry, looked up): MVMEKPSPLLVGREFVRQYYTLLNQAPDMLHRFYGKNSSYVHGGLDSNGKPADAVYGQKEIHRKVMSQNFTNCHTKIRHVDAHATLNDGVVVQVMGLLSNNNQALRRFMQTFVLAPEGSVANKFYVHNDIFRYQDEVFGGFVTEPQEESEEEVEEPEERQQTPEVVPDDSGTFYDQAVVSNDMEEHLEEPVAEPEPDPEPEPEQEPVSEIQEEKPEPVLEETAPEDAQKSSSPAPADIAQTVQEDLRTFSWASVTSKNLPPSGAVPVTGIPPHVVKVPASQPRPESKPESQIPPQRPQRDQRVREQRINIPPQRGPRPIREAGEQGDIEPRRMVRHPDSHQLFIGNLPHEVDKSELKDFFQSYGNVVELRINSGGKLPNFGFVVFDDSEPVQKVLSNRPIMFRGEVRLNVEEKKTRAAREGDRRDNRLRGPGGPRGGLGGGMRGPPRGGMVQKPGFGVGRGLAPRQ
Technique: RNA Bind-n-Seq
Form: RNA
Matrix: in vitro
Concentration: 1 µM
Setting: whole 134-nt RNA, ends assumed
With: 150 mM KCl
Reference: input library
Reading: higher = stronger binding
Constant ends, left off below: GGGAGUUCUACAGUCCGACGAUC … UGGAAUUCUCGGGUGUCAAGG
`CCUCAAGUCCUGUGCUACACAUCGUAUGUACCGAAUCGGAGGGGAGGGAGGGGAAAGUAUUAUGUUACGCCGUUCGGAUCUGCACUUCCA` has a log2 enrichment of 1.31.
The log2 enrichment of `CAAGUCCUGUGCUACACAUCGUAUGUACCGAAUCGGAGGAAAAAGGAAAAAAAGGAAAGUAUUAUGUUACGCCGUUCGGAUCUGCACUUC` is reported as -1.7.
For `ACCUUGCAGGUGGGCAUCUUUGGGAAGUGGGGCAAGGGGGGGAUAGGGAGGGGGGUAACACUUUGGGAACAGGUGGUCCCAGGUCGUUUC`, the log2 enrichment was -0.948.
`AAGUCCUGUGCUACACAUCGUAUGUACCGAAUCGGGGCCCGGCCCGGGGCCCGGGGAAAGUAUUAUGUUACGCCGUUCGGAUCUGCACUU` gave a log2 enrichment of -2.25.
The log2 enrichment of `CAAGUCCUGUGCUACACAUCGUAUGUACCGAAUCGGGUGGGAAAAAGGGAAAGGGAAAGUAUUAUGUUACGCCGUUCGGAUCUGCACUUC` is reported as 1.39.
`CACAGACAACACGCACCCACACAGACACAGAGGGAAUGGGUUGGGAUGGGGACAGGGUGCACAGCAGGGCGGGGUAGGACCCCAGCCCCU` has a log2 enrichment of -0.104.
With `AAGUCCUGUGCUACACAUCGUAUGUACCGAAUCGGGCCCCGGGCCCCGGGCCCCGGGAAAGUAUUAUGUUACGCCGUUCGGAUCUGCACU` the log2 enrichment was -2.57.
`AAGUCCUGUGCUACACAUCGUAUGUACCGAAUCGGGGAGGGGUUUUUGGGGAGGGGAAAGUAUUAUGUUACGCCGUUCGGAUCUGCACUU` has a log2 enrichment of 2.33.
`UUUGCAGAGCAGUCUCUGAUGAAGAAUGCCAUAAAAACAUCGGAGGAGUCAUGGAUUGAACAGCAGAUGCUAGAAGACAAGAAACGGGCC` has a log2 enrichment of -2.06.
With `CUCAAGUCCUGUGCUACACAUCGUAUGUACCGAAUCGGGCGGGGCGGGCGGGGAAAGUAUUAUGUUACGCCGUUCGGAUCUGCACUUCCA` the log2 enrichment was 2.44.
`CUGUGCUACACAUCGUAUGUACCGAAUCGGGCCCCCCCGGGCCCCCCCGGGCCCCCCCGGGGAAAGUAUUAUGUUACGCCGUUCGGAUCU` gave a log2 enrichment of -2.43.
For `CCUGUGCUACACAUCGUAUGUACCGAAUCGGUUUUUUUGGGGUUUUUUUGGUUUUUUUGGAAAGUAUUAUGUUACGCCGUUCGGAUCUGC`, the log2 enrichment was -1.17.
With `CCUCAAGUCCUGUGCUACACAUCGUAUGUACCGAAUCGGGUGGGAGGGAGGGAAAGUAUUAUGUUACGCCGUUCGGAUCUGCACUUCCAG` the log2 enrichment was 1.6.
The log2 enrichment of `ACCAUGCAGGUGGGCAUCUUUGGGAAGUGGGGCAAGGGGGGGAUAGGGAGGGGGGUAACACUUUGGGAACAGGAAAUCCCAGGUCGUUUC` is reported as -0.555.

Study 6
Target: ABI1, truncated, D143A, DHFR fusion (Arabidopsis thaliana)
Technique: DHFR PCA, deep sequencing
Matrix: yeast
Setting: methotrexate growth selection, single substitutions
With: (+)-ABA 17 µM
Reference: wild-type fitted maximum
Reading: higher = stronger binding
Parent: PYL1, truncated, DHFR fusion (Arabidopsis thaliana); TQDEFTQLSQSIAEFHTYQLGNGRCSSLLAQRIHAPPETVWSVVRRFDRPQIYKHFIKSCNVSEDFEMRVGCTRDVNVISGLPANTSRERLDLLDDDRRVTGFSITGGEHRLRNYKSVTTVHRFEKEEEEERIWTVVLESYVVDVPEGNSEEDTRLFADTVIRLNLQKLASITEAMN
`N85T`: “relative binding score” 92.6%.
`L156A` — result for “relative binding score”: 83%.
`R123A`: “relative binding score” 95.2%.
Under “relative binding score”, `V145S` is recorded as 15.5%.
Under “relative binding score”, `E131F` is recorded as 72.9%.
`T73E`: “relative binding score” 90%.
For `N85E`, “relative binding score” read 84.8%.
`T135R`: “relative binding score” 17%.
`L82R` — result for “relative binding score”: -0.627%.
`V100Q` — result for “relative binding score”: 5.7%.
Under “relative binding score”, `Q2K` is recorded as 84.1%.
For `T154W`, “relative binding score” read -8.53%.
`V44M`: “relative binding score” 31.8%.

Repeated from above (study 1):
`F9G`: “normalised enrichment score” 0.184.
`Q2K`: “normalised enrichment score” 0.379.
`S10R` — result for “normalised enrichment score”: 0.328.
Under “normalised enrichment score”, `D12L` is recorded as 0.825.
Under “normalised enrichment score”, `S8L` is recorded as 0.611.
`D12E` — result for “normalised enrichment score”: 0.412.
For `R5T`, “normalised enrichment score” read 0.0554.
For `S8P`, “normalised enrichment score” read 0.366.
Under “normalised enrichment score”, `Q6R` is recorded as 0.595.
For `E11D`, “normalised enrichment score” read 0.215.
